Experimental data of several laboratories.
Lines come from different studies, so protocols differ. Several values in a cell are separate wells, animals, samples, runs or records. ± gives the spread as reported.
PPO3: PPO3 (Agaricus bisporus, UniProt C7FF04)
USP14: Ubiquitin carboxyl-terminal hydrolase 14 (USP14, Homo sapiens, UniProt P54578)

`Clc1ccc(-c2cc(CN3c4ccccc4C=Cc4ccccc43)on2)cc1` has an apparent Vmax of 34.1 µmol/min (PPO3; enzyme activity, inhibitor; concentration not given).
`CCOc1ccc(S(=O)(=O)N=C2CC(Sc3nc[nH]n3)C(=O)c3ccccc32)cc1` (centres unmarked) has an inhibition of 81% (USP14; enzyme activity, inhibitor; 17 µM).
`C[n+]1ccc(/C=N/NC(=O)c2cccc(C(=O)N/N=C/c3cc[n+](C)cc3)c2)cc1` gave a ΔTm of -0.5 ± 0.3 °C (hp2 hairpin duplex DNA; FRET melting; 1 µM).
For `O=C(NN=C1C=CC(=NO)C=C1)c1ccccc1O`, the inhibition was 34% (USP14; enzyme activity, inhibitor; 17 µM).
The basal binding of `CCCCOc1ccc(C(=O)OCC[N+]2(C)CC=CCC2)cc1` (centres unmarked) is reported as 0.94 ± 0.02 fold (CHRM1 (Homo sapiens, UniProt P11229); membranes; 10 µM, 15 h, no carbachol; relative to: control).
Under “SILAC activity ratio”, `O=C(N1CCCC1)n1cc(-c2ccc(-c3ccccc3)cc2)nn1` is recorded as 1.35 (Acyl-protein thioesterase 2 (Mus musculus, UniProt Q9WTL7); probe labelling, inhibitor, competitive ABPP-SILAC, refers to: Lypla2; mouse T cells; concentration not given, 4 h, protein level; relative to: treated over DMSO cells, lower = stronger inhibition).
With `N#CN1CC[C@H](C(=O)Nc2nc3c(s2)CN(C(=O)Cn2cc(COCCOCCOCCOCCNC(=O)CCCC[C@@H]4SC[C@@H]5NC(=O)N[C@@H]54)nn2)CC3)C1` the iBAQ abundance was 176000 and 422000 and 359000 (E3 ubiquitin-protein ligase HECTD1 (HECTD1, Homo sapiens, UniProt Q9ULT8); probe binding, affinity probe, neutravidin pull-down LC-MS/MS; HEK293T, cell lysate; 5 µM, 1 h, single replicate, unit not given; higher = more pulled down).
For `Oc1cc(O)c2cc(O[C@@H]3OC[C@H](O)[C@H](O)[C@H]3O)c(-c3ccc(O)c(O)c3)[o+]c2c1`, the binding entropy was -174 ± 0.78 J/(mol·K) (PPO3; fluorescence quenching; concentration not given).
`C[n+]1ccc(/C=N/NC(=O)C(=O)N/N=C/c2cc[n+](C)cc2)cc1` has a ΔTm of 0.3 ± 0.2 °C (hp2 hairpin duplex DNA; FRET melting; 1 µM, with: ds26 10 µM).
`O=S(=O)(c1ccc(-c2ccc3ncnc(Nc4ccc(OCc5ccc(F)cc5)c(Cl)c4)c3c2)cc1)N1CCOCC1` gave an EC50 of greater than 15 µM (Leishmania major; intracellular amastigote growth, luciferase; RAW264.7 macrophages).
The melting temperature of `C=CC(=O)N1CCCC(n2c(=O)c3ncccc3n(Cc3ccc(Oc4ccccc4)cc3)c2=O)C1` (centres unmarked) is reported as 52.4 °C and 47.5 °C (USP14; thermal proteome profiling; cell proteome; treated).
For `O=C1c2sc(-c3ccc(N4CCC(F)C4)nc3F)nc2CCN1c1cccnc1` (centres unmarked), the specific binding was 2.22 a.u. and 1.22 a.u. and 2.42 a.u. and 1.2 a.u. (TAR DNA-binding protein 43, aggregated (TARDBP, Homo sapiens, UniProt Q13148); autoradiography; human, non-demented control sections; 10 nM; higher = more binding).
For `CC[C@H](C)[C@@H]1NC(=O)[C@H](Cc2ccccc2)NC(=O)[C@H](CCC(=O)O)NC(=O)[C@H](CCCNC(=N)N)NC(=O)CNC(=O)[C@@H](NC(=O)[C@H](CC(C)C)NC(=O)[C@H](CCCNC(=N)N)NC(=O)[C@@H](NC(=O)CNC(=O)[C@H](Cc2ccc(O)cc2)NC(=O)[C@@H]2CCCN2C(=O)[C@H](C)NC(=O)[C@H](C)NC(=O)[C@@H](N)CCCNC(=N)N)C(C)C)CSSC[C@@H]2NC(=O)[C@@H](NC(=O)[C@H](CO)NC(=O)[C@H](CO)NC(=O)[C@H](CO)NC(=O)[C@H](CC(C)C)NC(=O)CNC(=O)[C@H](C)NC(=O)[C@H](CC(C)C)NC(=O)[C@@H](NC(=O)[C@@H](N)CC(=O)O)C(C)C)CSSC[C@H](NC(=O)CNC(=O)[C@H](Cc3c[nH]c4ccccc34)NC(=O)[C@H](CCCCN)NC2=O)C(=O)N[C@@H](CO)C(=O)N[C@@H](CCCCN)C(=O)N[C@@H](CO)C(=O)N[C@@H](CCC(=O)O)C(=O)N[C@@H]([C@@H](C)CC)C(=O)N[C@@H](CO)C(=O)N[C@@H](CO)C(=O)N[C@@H](CC(C)C)C(=O)N[C@H](C(=O)O)CSSC[C@@H](C(=O)NCC(=O)NCC(=O)N[C@@H](CO)C(=O)N[C@@H](CCCNC(=N)N)C(=O)N[C@@H](Cc2c[nH]c3ccccc23)C(=O)O)NC(=O)[C@H]([C@@H](C)O)NC(=O)[C@H](Cc2ccccc2)NC(=O)[C@H]([C@@H](C)CC)NC(=O)[C@H](C(C)C)NC(=O)[C@H](C)NC(=O)[C@H](CCCNC(=N)N)NC1=O`, the ΔpEC50 was -1.58 and -2.16 and -1.44 (RXFP4 (Homo sapiens, UniProt Q8TDU9, Q287A); Q287A mutant, unit not given; relative to: wild type).
`O=C(O)Cc1cc2c(cc1C(=O)c1ccccc1I)OCO2`: “current amplitude ratio” 2.5 ± 0.2 (Gria2/Glutamate receptor 3 (Rattus norvegicus, UniProt P19491+P19492); glutamate-evoked current, whole-cell patch clamp; HEK-293T; concentration not given; relative to: glutamate alone).

For quick reference, copied from above:
`O=C(O)Cc1cc2c(cc1C(=O)c1ccccc1I)OCO2`: “current amplitude ratio” 2.5 ± 0.2 (Gria2/Glutamate receptor 3 (Rattus norvegicus, UniProt P19491+P19492); glutamate-evoked current, whole-cell patch clamp; HEK-293T; concentration not given; relative to: glutamate alone).
